# Experimental data pooled from the literature.
# Every numbered part comes from another study and shows a few of its results, in no order.

# Set 1
# Target: RNA binding protein fox-1 homolog 2, RRM domain, GST-SBP tag (RBFOX2, Homo sapiens, UniProt O43251-10, residues 100-194)
# Method: RNA Bind-n-Seq
# Form: RNA
# Sample: in vitro
# Concentration: 365 nM
# Notes: natural RNA segment, single round, ends assumed
# Reference: no-protein control
# Reading: higher = stronger binding
# Shared flanks, not repeated: GGGAGUUCUACAGUCCGACGAUC … UGGAAUUCUCGGGUGCCAA
# Construct (chain): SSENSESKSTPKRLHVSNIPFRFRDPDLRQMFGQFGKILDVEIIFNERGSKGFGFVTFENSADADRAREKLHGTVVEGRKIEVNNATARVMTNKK
Sequence,RBNS enrichment (R)
GCAGUCAGAAGAAUGUGAAGGAUGUCUGCGCUGCAGCCUCCAGUGCUGGGUACGCUUCUCUCGUGGGGAAGGGCCGUGUCCAGGCAUGUGGAUGGCUUGAAGACUACUGA,1.01
GAGUUUGAAGAUUUUUCUUCUAGACAUCUCAAAAUGUGGUACUCAUACCAUCCACAUCAGAAUCCCUUGUAGGAUUUUCUAAAAUUACAGAUUGUUGAGCCUACCAUAGG,0.301
UUUAAAGAGGCAUCUAGGGAAUUGUCAGGCACCCUACAGGAAGGCCUGCCAUGCUGUGGCCAACUGUUUCACUGGAGCAAGAAAGAGAUCUCAUAGGACGGAGGGGGAAA,1.13
ACAUUGGAUUCCCCAGUGAGAUCAUCUAGAAACCAUCUAAAUAAACCACUCUAUAUUUUAUGAAUUACAUGUGGGUUUUUUAUAUAUAAAAACAUAUGCGCUGACAUUUU,0.6
UUGUAUGUGUUCUCCCUUCCUUGAAUCUCUUGUAUGGCCCUAGAACUUUGGUCAGGUGUGUUUAUGGUGACAUGAUUUCUGUGGUUCCUGCCUUACAGCAGGCAGGUUGU,1.83
UAAAAGCCUUCAACCAUGAUUUUCAUCAUUGGAAAUAGAAUUGAAUGGCCACCCUGUGUUGUGGGAACUGAGAAGGGCAAUAUAAACCUGAGAGGUUCCUUUGUGUGGUG,0.994
UUUGGCCCUGUAUCAGGAGCACAGAUACAGUUUAUGUAACUUGAUGGAAGAAAAUGGAAUUACUCCAAAAAGACAAGUGCUCAAGCAGCAAAAUCCUUACUUCCAGCAAA,0.277
CCCGCUCUGGGCUUCUCUCAACCCCAACCCUGGGUUUUCUCCUAGACUCUUGGGCUGCGAUGCAUCACCCUUGUUACCCUGCAGUGGCUCUUACAAAACCACUUCCUCCC,1.01
UCCACCCACCUUGGCCUCCCAAAGUGCUAGUAUUAUGGGCGUGAACCACCAUGCCCAGCCGAAAAGCUUUUGAGGGGCUGACUUCAAUCCAUGUAGGAAAGUAAAAUGGA,0.372
CCCCAGAUGGACUGGAAUGUUGUGGCAUGAGAGCGCAUGUGUGCGAUGGCCCCGCUGUGGUCCCCUCUCUGUCCCUCCAUCUGUAUGUGUUCUGUGUCCCUUGCAUGUGU,38.1
AACAGGCGAGCUCCUGAGGGCUCUCCAAGGCUGCAGACUGAGGUCCUUGAGUGCCCAGGCUUGAAGCACAUUGGCUGUCAUUCUGAUGUGACUCGAGAUUGCAGUUGCAA,0.346
CUCAUAAGAAGGGAUGGGGAGGGAAGGAAGUCGCCUUGUUUACAGACCUAUUUUUGUUGUCUUGUUCCCUAAAGGAGUUUUCUAACACUUGAAUAAAUUGGGAUACUAAA,0.976

# Set 2
# Target: Phosphate system positive regulatory protein PHO4, full length, GST-tagged (PHO4, Saccharomyces cerevisiae, UniProt P07270, residues 1-312)
# Method: competition protein-binding microarray
# Form: double-stranded DNA, one strand shown
# Sample: in vitro
# Concentration: 2 µM
# Notes: whole 60-bp probe, lowest competitor level
# Together with: Cbf1 competitor, 0.05 µM
# Reading: higher = stronger binding
# Shared flanks, not repeated: … GTCTTGATTCGCTTGACGCTGCTG
# Target sequence (chain): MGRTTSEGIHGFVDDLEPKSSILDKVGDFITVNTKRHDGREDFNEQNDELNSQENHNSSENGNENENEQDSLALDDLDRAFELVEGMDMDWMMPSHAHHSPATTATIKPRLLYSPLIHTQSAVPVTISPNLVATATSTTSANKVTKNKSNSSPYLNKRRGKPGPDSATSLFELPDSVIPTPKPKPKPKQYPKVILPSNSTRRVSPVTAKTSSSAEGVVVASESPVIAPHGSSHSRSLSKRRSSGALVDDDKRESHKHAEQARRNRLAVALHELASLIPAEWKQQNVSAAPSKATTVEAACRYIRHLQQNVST
Sequence,fluorescence intensity [a.u.]
CCTGCACCGACTCCGTGCGTGCGGAATTGGTAATGC,9350
CCGACGTCCGCCTTGCATGCGCTCTCGCATTTTTAA,6780
TCCAAAATTGACTCGCATGTGGTGTTGTCATTTTCT,10100
CCCAATCTGAGAGAGAACGTGCCGAGGCCGCCTTCA,12300
AGGCCCAAATGCTTGCACAGGCACAAGCTCAGGCTC,4700
TCATAGAGACTTCCACGCGTGGCAAGGTGATTGGCC,9340
CTTCTGTAAATTTGATTAGTGGGTGGACGCGCCCCG,4670
ACAGCGTCGGCGGGCCACGTGCGGGAGGAGGGGCCG,15300
AATCCTATTAAATTGCGCGTGGGAGTTTAAATGGGT,10600
CCCCATCGGACTCGGCACGATACTGGCGTTGAACGC,6500
AAAGCGGTAATTTGACTCGTGGGTGCAGATATCTAT,11000
CTAACGAAGGTTTGGTGAGTGGGTGACAAGCCAAGT,3970
CCTAGCACTCGCTATTTCGTGACGGCGTTCCAGGAC,4260
GAATGTATGGATCGTCAGGTGGGCATTTGTTAACTT,4730
CTAAGAAGATTGCTCAACGTGAAATACTTGCTGCTT,6350
TTGGCGTTTGACTGTCACAGTCCCAAATCCTTGCAG,3090
TTTGAAAAAACCCATCACGCAGTGGCCGATGTAATT,5930

# Set 3
# Target: Ras GTPase-activating protein-binding protein 1, full length (G3BP1, Homo sapiens, UniProt Q13283)
# Chain of UniProt Q13283 (whole entry, looked up): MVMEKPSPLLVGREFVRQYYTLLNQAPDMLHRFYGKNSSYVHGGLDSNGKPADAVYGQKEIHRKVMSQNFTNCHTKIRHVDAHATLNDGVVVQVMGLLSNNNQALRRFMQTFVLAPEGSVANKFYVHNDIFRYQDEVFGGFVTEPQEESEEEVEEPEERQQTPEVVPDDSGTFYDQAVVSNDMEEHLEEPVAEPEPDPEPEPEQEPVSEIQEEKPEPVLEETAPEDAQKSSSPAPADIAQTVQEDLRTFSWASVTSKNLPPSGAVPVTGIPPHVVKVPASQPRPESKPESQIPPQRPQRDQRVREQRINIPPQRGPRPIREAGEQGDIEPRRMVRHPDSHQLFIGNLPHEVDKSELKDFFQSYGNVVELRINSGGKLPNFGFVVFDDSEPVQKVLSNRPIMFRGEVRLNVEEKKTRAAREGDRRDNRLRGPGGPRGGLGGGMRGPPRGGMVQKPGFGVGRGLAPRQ
# Method: RNA Bind-n-Seq
# Form: RNA
# Sample: in vitro
# Concentration: 200 nM
# Notes: whole 134-nt RNA, ends assumed
# Together with: 150 mM LiCl
# Reference: input library
# Reading: higher = stronger binding
# Library: 7-deaza-guanosine replaces G
# Shared flanks, not repeated: GGGAGUUCUACAGUCCGACGAUC … UGGAAUUCUCGGGUGUCAAGG
Sequence,log2 enrichment
CACAGACAACACGCACCCACACAGACACAGAGGGAAGGGGUUGGGAUGGGGACAGGGUGCAAAACAGGGCGGGGUAGGACCCCAGCCCCU,0.0381
GCAGGAAGUAAAAACAAAUGGAAAUGCUUCGGAUAGUGGCAGGGGUGGGGGUUGCUAAGGAACGGGUGGGAUGGGAGUGGGUAAAGAGUU,0.305
UGGCCCUGGUGGCAUGCGGGGAGGAAGAGGUGGCCUCAUGGAUCGUGGUGGUCCCGGUGGAAUGUUCAGAGGUGGCCGUGGUGGAGACGG,-0.102
ACCAUGCACGUGGGCAUCUUUGGGAAGUGGGGCAAGGGGGGGAUAGGGAGGGGGGUAACACUUUGGGAACAGGUGGUCCCAGGUCGUUUC,0.0496
CAAGUCCUGUGCUACACAUCGUAUGUACCGAAUCGGGGCCCGGGGCCCGGCCCGGGAAAGUAUUAUGUUACGCCGUUCGGAUCUGCACUU,-1.02
CACAGACACCACGCACCCACACAGACACAGAGGGAAGGGGUUGGGAUGGGGACAGGGUGCACAGCAGGGCGGGGUAGGACCCCAGCCCCU,0.128
UGGCCCUGGUGGCAUGCGGGGAGGAAGAGGUGGCCUCAUGGAUCGUGGUGGUACCGGUGGAAUGUUCAGAGGUGGCCGUGGUGGAGACAG,0.364
UGGCCCUGGUGGCAUGCGGGGAGGAAGAGGUGGCCUCAUGGAUCGUGGUGGUCCCGGUGGAAUGUUCAGAGGUGGCCGUGGUUGAGACAG,-0.229
UAACUUUAGAGGAGGAUCUGAUGGAUAUGGCAGUGGACGUGGAUUUGGGGAUGGCUUUAAUGGGUAUGGAGGAGGACCUGGAGGUGGCAA,-0.258
CCUGUGCUACACAUCGUAUGUACCGAAUCGGGGCCCCCCCGGCCCCCCCGGCCCCCCCGGGAAAGUAUUAUGUUACGCCGUUCGGAUCUG,0.484
UGGCCCUGGUGGCAUGCGGGGAGGAGGAGGUGGCCUCAUGGAUCGUGGUGGUCCCGGUGGAAUGUUCAGAGGUGGCCGUGGUGGAGACAG,0.465

# Set 4
# Target: Interferon regulatory factor 3, full length, phosphomimetic (IRF3, Homo sapiens, UniProt Q14653, residues 1-427, S386D/S396D/S398D/S402D/T404D/S405D)
# Method: protein-binding microarray
# Form: double-stranded DNA, one strand shown
# Sample: in vitro
# Concentration: 2540 nM top
# Notes: 60-bp whole probe
# Together with: salmon DNA 0.4 mg/ml
# Reference: random background probes
# Reading: higher = stronger binding
# Shared flanks, not repeated: GCCTAGCAC … GTCTTGATTCGCTTGACGCTGCTG
# Residues (chain): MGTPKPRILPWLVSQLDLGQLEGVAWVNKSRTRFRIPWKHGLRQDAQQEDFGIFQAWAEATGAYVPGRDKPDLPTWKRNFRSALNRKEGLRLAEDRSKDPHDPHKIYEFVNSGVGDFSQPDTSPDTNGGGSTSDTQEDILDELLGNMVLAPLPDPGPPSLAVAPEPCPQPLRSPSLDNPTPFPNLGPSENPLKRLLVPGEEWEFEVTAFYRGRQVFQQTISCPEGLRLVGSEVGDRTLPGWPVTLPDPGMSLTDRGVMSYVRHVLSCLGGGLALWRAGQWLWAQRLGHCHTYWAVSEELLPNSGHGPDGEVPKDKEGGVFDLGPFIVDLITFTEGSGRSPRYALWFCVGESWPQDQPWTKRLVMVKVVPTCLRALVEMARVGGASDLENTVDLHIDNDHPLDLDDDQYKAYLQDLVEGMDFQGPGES
Sequence,fitted relative affinity
GACGGTATGGACTATCGGGACGTGCTA,-0.452 z-score
TTAGGACTGCTACCGCTTTAGTGCTAG,-0.677 z-score
GACGATATCGGGTTTCGAGATGTGCTA,1.23 z-score
ACTTGTATTTGTCCCTATTTGTGCTAG,0.933 z-score
TTAGGTTTCGACATTGGGTTAGTGCTA,2.76 z-score
GACGGACTGGGTTTCGGGAAGTGCTAG,0.701 z-score
GACGGTTTCGGGATTCGGGACGTGCTA,4.56 z-score
TCAGCTTTGCAGATAAAACTGTGCTAG,-0.115 z-score
TTAGGACTGCTTCTCCATTAGTGCTAG,-0.246 z-score
GACGGTATCGGGACTGGGGTCGTGCTA,1.68 z-score
TTAGGTATCGGACTGGGTCAGTGCTAG,1.21 z-score
TTAGGTATCCTTGTCCTTTAGTGCTAG,2.78 z-score
TCATTTTCGTTTTTATTACTGTGCTAG,6.5 z-score
TCAGCATTCCCTTTCTCACTGTGCTAG,3.97 z-score
TTAGATCTCAGTATCGGTTAGTGCTAG,2 z-score
TTAGATATCGGGTATTGATTAGTGCTA,-0.0296 z-score
TTAGGTATCGACCATCGGTTAGTGCTA,-0.236 z-score
GGCGAACTGGGGTTTCGAGACGTGCTA,0.0138 z-score
TCACCTCTGCTCCTCTTACTGTGCTAG,0.23 z-score
TCTCTTTTATTTTTTTTATTGTGCTAG,1.97 z-score
CTAGATATCGGGACTGGATTAGTGCTA,0.141 z-score
TTAGGTCTCGTACTGGGTTAGTGCTAG,-0.282 z-score
TTAGGACTGCTTATCCATTAGTGCTAG,-0.137 z-score
TTAGAACTGAGGTATCGATTAGTGCTA,0.0232 z-score
TCATTTTTTTAATTGAGACTGTGCTAG,1.1 z-score

# For quick reference, copied from above (set 1):
Sequence,RBNS enrichment (R)
UUGUAUGUGUUCUCCCUUCCUUGAAUCUCUUGUAUGGCCCUAGAACUUUGGUCAGGUGUGUUUAUGGUGACAUGAUUUCUGUGGUUCCUGCCUUACAGCAGGCAGGUUGU,1.83
GAGUUUGAAGAUUUUUCUUCUAGACAUCUCAAAAUGUGGUACUCAUACCAUCCACAUCAGAAUCCCUUGUAGGAUUUUCUAAAAUUACAGAUUGUUGAGCCUACCAUAGG,0.301
UAAAAGCCUUCAACCAUGAUUUUCAUCAUUGGAAAUAGAAUUGAAUGGCCACCCUGUGUUGUGGGAACUGAGAAGGGCAAUAUAAACCUGAGAGGUUCCUUUGUGUGGUG,0.994
CCCGCUCUGGGCUUCUCUCAACCCCAACCCUGGGUUUUCUCCUAGACUCUUGGGCUGCGAUGCAUCACCCUUGUUACCCUGCAGUGGCUCUUACAAAACCACUUCCUCCC,1.01
UUUAAAGAGGCAUCUAGGGAAUUGUCAGGCACCCUACAGGAAGGCCUGCCAUGCUGUGGCCAACUGUUUCACUGGAGCAAGAAAGAGAUCUCAUAGGACGGAGGGGGAAA,1.13
AACAGGCGAGCUCCUGAGGGCUCUCCAAGGCUGCAGACUGAGGUCCUUGAGUGCCCAGGCUUGAAGCACAUUGGCUGUCAUUCUGAUGUGACUCGAGAUUGCAGUUGCAA,0.346
ACAUUGGAUUCCCCAGUGAGAUCAUCUAGAAACCAUCUAAAUAAACCACUCUAUAUUUUAUGAAUUACAUGUGGGUUUUUUAUAUAUAAAAACAUAUGCGCUGACAUUUU,0.6
CCCCAGAUGGACUGGAAUGUUGUGGCAUGAGAGCGCAUGUGUGCGAUGGCCCCGCUGUGGUCCCCUCUCUGUCCCUCCAUCUGUAUGUGUUCUGUGUCCCUUGCAUGUGU,38.1
UCCACCCACCUUGGCCUCCCAAAGUGCUAGUAUUAUGGGCGUGAACCACCAUGCCCAGCCGAAAAGCUUUUGAGGGGCUGACUUCAAUCCAUGUAGGAAAGUAAAAUGGA,0.372
